Measurements of several laboratories.
Numbered parts are unrelated; each lists some results of a single study. “And” joins repeats or separate records; there may be more than shown.
UniProt P42336, sequence (whole entry, unmodified, looked up): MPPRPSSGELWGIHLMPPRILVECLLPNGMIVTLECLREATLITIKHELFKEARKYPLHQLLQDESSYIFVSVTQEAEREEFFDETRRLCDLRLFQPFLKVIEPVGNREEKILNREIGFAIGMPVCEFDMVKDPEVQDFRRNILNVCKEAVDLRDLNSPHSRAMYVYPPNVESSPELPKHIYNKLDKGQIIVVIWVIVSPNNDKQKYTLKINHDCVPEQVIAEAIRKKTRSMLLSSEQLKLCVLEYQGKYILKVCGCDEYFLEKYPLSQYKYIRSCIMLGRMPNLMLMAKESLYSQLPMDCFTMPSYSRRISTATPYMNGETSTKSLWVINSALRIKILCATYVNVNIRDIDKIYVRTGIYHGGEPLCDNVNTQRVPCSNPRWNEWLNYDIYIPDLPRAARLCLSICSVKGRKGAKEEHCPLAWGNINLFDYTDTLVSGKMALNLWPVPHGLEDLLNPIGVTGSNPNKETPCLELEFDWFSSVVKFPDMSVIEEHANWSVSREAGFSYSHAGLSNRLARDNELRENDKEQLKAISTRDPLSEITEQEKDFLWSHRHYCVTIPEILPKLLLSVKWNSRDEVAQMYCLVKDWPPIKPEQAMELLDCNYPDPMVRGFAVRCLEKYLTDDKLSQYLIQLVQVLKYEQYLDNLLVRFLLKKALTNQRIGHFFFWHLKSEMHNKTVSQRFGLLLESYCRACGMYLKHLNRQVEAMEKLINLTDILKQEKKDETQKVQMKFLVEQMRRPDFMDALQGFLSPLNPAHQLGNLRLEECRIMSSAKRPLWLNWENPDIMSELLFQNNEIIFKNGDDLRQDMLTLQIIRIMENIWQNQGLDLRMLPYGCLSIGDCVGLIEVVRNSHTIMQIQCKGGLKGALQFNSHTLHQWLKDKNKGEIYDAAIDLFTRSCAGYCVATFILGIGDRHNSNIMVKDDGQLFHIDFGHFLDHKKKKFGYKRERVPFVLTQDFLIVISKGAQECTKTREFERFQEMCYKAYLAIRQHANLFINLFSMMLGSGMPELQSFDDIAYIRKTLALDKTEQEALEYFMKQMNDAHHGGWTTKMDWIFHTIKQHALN
UniProt Q9Y243, sequence (whole entry, looked up): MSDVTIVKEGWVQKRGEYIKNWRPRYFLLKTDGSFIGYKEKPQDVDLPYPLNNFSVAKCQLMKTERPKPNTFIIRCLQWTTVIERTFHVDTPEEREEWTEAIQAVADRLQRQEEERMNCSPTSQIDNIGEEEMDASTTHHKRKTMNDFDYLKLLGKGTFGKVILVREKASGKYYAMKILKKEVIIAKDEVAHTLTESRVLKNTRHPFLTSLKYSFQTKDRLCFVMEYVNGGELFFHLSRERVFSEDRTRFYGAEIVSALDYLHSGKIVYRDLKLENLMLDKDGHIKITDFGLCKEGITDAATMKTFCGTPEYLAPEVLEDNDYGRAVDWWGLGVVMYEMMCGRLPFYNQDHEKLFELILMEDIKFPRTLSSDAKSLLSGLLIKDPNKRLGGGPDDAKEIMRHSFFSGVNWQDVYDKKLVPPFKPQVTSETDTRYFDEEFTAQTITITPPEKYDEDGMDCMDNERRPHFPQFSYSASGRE
UniProt P08684, sequence (whole entry, looked up): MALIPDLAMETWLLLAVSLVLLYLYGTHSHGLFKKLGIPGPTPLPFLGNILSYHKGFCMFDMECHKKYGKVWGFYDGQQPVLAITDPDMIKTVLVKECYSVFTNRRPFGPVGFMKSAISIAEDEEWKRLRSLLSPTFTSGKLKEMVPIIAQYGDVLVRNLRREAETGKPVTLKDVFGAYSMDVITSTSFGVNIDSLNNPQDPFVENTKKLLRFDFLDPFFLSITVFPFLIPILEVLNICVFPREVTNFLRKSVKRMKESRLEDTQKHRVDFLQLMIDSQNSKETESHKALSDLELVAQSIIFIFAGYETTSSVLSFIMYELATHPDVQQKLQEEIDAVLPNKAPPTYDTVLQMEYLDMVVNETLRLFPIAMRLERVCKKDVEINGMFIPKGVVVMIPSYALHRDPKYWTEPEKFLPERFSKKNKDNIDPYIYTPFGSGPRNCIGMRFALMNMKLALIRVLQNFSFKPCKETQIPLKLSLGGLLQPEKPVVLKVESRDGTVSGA
UniProt Q86Z02, sequence (whole entry, looked up): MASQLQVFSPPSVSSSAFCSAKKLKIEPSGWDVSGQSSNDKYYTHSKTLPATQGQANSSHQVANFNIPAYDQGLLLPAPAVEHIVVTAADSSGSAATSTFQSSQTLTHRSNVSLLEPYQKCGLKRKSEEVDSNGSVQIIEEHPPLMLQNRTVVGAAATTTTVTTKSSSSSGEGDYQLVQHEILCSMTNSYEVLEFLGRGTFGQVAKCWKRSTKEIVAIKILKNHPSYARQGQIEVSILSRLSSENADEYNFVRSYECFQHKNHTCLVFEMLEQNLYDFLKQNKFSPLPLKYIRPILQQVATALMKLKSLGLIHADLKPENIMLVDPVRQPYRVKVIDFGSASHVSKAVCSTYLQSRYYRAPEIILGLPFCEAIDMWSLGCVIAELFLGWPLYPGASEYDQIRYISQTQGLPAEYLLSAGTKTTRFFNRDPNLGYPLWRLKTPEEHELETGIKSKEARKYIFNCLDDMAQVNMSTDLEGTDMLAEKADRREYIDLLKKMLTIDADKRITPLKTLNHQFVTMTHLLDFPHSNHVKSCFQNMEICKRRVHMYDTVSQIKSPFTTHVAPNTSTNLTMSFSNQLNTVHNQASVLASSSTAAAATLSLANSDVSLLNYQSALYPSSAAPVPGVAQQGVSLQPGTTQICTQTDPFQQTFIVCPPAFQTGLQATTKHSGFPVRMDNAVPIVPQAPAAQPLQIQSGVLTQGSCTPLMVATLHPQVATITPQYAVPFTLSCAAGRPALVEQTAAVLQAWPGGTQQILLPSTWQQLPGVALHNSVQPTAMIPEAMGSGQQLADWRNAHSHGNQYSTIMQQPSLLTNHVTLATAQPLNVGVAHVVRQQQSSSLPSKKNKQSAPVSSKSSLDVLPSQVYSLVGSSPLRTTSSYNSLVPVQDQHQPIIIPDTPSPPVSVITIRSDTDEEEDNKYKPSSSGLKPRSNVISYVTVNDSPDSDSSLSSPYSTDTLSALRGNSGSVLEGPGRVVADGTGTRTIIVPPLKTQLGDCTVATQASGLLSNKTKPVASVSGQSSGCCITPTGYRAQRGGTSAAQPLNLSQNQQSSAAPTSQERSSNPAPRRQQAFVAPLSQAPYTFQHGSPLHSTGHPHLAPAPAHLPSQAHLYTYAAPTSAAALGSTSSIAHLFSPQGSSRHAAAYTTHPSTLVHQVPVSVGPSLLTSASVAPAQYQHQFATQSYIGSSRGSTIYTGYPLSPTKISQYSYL
UniProt Q9UIK4, sequence (whole entry, looked up): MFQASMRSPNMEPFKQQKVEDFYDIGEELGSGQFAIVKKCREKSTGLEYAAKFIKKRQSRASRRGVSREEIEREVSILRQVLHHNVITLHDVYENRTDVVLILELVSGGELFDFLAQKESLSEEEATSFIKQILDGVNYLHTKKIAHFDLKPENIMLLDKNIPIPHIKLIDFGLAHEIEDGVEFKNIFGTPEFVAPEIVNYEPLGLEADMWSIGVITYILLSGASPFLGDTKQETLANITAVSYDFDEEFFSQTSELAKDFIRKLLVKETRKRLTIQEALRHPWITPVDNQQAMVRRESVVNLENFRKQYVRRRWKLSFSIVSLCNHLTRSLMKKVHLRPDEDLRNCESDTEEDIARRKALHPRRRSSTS
UniProt P06213, sequence (whole entry, looked up): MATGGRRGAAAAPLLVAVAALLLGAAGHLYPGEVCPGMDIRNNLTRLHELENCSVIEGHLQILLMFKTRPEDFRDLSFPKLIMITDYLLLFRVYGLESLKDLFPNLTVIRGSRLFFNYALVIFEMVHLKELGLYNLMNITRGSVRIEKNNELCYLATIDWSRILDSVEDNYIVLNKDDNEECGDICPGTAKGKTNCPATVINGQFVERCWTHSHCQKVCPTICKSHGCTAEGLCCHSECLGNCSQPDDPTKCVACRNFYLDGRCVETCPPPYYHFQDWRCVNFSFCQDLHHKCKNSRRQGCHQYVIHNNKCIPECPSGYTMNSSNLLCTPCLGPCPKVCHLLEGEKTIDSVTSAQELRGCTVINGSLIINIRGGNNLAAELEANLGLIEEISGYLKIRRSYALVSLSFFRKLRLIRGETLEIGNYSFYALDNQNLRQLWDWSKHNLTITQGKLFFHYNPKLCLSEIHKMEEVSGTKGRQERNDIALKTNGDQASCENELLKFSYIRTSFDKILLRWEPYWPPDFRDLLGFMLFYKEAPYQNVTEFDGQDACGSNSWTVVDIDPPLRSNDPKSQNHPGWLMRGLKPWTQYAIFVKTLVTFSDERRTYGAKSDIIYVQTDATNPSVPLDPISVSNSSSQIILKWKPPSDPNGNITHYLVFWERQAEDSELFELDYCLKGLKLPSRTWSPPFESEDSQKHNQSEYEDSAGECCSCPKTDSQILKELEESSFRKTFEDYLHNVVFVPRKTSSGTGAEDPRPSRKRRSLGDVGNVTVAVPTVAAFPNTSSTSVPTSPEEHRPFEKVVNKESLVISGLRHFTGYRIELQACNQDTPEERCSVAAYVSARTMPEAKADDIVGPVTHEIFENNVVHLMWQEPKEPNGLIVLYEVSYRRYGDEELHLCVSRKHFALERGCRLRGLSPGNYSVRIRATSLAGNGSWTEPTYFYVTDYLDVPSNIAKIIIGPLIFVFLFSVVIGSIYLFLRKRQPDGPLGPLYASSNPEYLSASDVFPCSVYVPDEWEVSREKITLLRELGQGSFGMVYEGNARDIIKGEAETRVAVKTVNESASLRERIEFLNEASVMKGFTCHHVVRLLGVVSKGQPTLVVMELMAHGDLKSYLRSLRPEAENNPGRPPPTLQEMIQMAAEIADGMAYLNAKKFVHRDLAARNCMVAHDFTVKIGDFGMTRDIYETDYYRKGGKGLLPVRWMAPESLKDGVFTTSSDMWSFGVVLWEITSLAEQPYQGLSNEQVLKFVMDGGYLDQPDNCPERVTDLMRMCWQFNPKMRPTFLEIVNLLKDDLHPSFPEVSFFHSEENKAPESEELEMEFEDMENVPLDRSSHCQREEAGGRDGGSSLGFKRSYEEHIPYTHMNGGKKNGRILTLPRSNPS

Set 1
SMILES: O=C(Nc1ccccc1)Nc1cccc(Oc2ccc3nccn3n2)c1
Read-out: binding
Concentration: 1 µM
The remaining binding was 80% (AKT3 (Homo sapiens, UniProt Q9Y243)).
Insulin receptor (INSR, Homo sapiens, UniProt P06213) — remaining binding: 100%.
For HIPK1 (Homo sapiens, UniProt Q86Z02); competition with immobilised ligand: remaining binding read 100%.
For PIK3CA (Homo sapiens, UniProt P42336, I800L): remaining binding read 100%.
The remaining binding was 100% (PIK3CA (Homo sapiens, UniProt P42336)).
The remaining binding was 100% (CSNK2A2 (Homo sapiens, UniProt P19784)).
For DAPK2 (Homo sapiens, UniProt Q9UIK4): remaining binding read 100%.
PIK3CA (Homo sapiens, UniProt P42336, Q546K) — remaining binding: 100%.

Set 2
Structure (SMILES): Cc1ncsc1-c1ccc(C(CO)NC(=O)C2CC(O)CN2C(=O)C(C(C)C)n2cc(-c3ccc(COc4c(-c5c(C)c(F)cc6[nH]ncc56)c(C5CC5)cc5c(N6CC7CC6CN7)nc(OC6CCOCC6)nc45)cc3)nn2)cc1 (stereo not shown)
Method: qRT-PCR
Species: mouse, PK-59 xenograft
Sample: tumour
Notes: unit not given
The mRNA level was 0.593 and 0.62 and 0.85 (measured: MYC; 10 mg/kg, 144 h; reference: vehicle).
The mRNA level was 0.0081 and 0.0104 (measured: ETV4; intravenous, 30 mg/kg, 144 h; reference: vehicle, same time point).
For measured: ETV4; intravenous, 10 mg/kg, 144 h; reference: vehicle, same time point: mRNA level read 0.0108 and 0.0112 and 0.00853.
The mRNA level was 0.00689 and 0.00904 and 0.00794 (measured: DUSP6; intravenous, 30 mg/kg, 24 h; reference: vehicle, same time point).
It gave 0.641 and 0.367 and 0.449 for mRNA level (measured: MYC; 30 mg/kg, 72 h; reference: vehicle).
The mRNA level was 0.0137 and 0.0117 and 0.00758 (measured: ETV4; intravenous, 30 mg/kg, 6 h; reference: vehicle, same time point).
For measured: DUSP6; intravenous, 10 mg/kg, 48 h; reference: vehicle, same time point: mRNA level read 0.0339 and 0.0387 and 0.0348.
It gave 0.249 and 0.317 and 0.267 for mRNA level (measured: DUSP4; 10 mg/kg, 72 h; reference: vehicle).

Set 3
Compound: C=CC(=O)N1CCN(c2nc(OC[C@@H]3CCCN3C)nc3c2CCN(c2cccc4cccc(C)c24)C3)C[C@@H]1CC#N
Read-out: binding
Action: competitor
Method: NanoBRET
Cells: HEK293
KRAS G13D: GTPase KRas (KRAS, Homo sapiens, UniProt P01116, G13D)
KRAS Q61L: GTPase KRas (KRAS, Homo sapiens, UniProt P01116, Q61L)
KRAS G13D; 82.2 nM — normalized BRET: 88.9% and 86.2% and 94.8%.
For GTPase KRas (KRAS, Homo sapiens, UniProt P01116, G12D); 156 nM: normalized BRET read 108%.
KRAS Q61L; 9.14 nM — normalized BRET: 91.8% and 93.8% and 93.5%.
KRAS G13D; 1.02 nM — normalized BRET: 92.5% and 98.8% and 84.8%.
The normalized BRET was 81.6% and 103% and 98.2% (GTPase KRas (KRAS, Homo sapiens, UniProt P01116, Q61R); 247 nM).
GTPase HRas (HRAS, Homo sapiens, UniProt P01112); 20 µM — normalized BRET: 184% and 112%.
For GTPase KRas (KRAS, Homo sapiens, UniProt P01116, Q61H); 1.02 nM: normalized BRET read 93.1% and 92.2% and 96%.
The normalized BRET was 31.3% and 32.9% and 34.1% (KRAS Q61L; 6.67 µM).

Other studies, line by line
With `Cn1cc(-c2cccc(CN3CCC4(CC3)COc3c4ccc4c3CN([C@H]3CCC(=O)NC3=O)C4=O)c2)cn1` the IC50 was greater than 10 µM (Cytochrome P450 3A4 (CYP3A4, Homo sapiens, UniProt P08684); inhibitor; together with: testosterone).

Some of these lines once more (set 3):
KRAS G13D; 82.2 nM — normalized BRET: 88.9% and 86.2% and 94.8%.
For GTPase KRas (KRAS, Homo sapiens, UniProt P01116, G12D); 156 nM: normalized BRET read 108%.
